Assay results collected from several papers.
Each numbered part is a random draw from the data of one study; scales do not carry over between parts.

Study 1
Target: Centromere-binding protein 1, full length, His-tagged (CBF1, Saccharomyces cerevisiae, UniProt P17106, residues 1-351)
Sequence of UniProt P17106 (whole entry, looked up): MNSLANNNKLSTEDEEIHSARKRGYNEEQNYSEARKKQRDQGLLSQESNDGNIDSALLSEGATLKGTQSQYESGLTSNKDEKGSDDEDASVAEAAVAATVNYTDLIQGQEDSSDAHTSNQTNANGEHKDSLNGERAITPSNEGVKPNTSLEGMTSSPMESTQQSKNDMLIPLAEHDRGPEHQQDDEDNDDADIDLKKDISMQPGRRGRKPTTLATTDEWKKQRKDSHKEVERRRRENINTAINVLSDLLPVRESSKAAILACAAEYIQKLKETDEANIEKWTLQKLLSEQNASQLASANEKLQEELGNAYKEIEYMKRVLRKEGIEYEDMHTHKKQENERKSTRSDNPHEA
Method: competition protein-binding microarray
Molecule type: double-stranded DNA, one strand shown
Sample: in vitro
Tested at: 2 µM
Notes: whole 60-bp probe, lowest competitor level
Added: Pho4 competitor, 0.05 µM
Reading: higher = stronger binding
All sequences stand within: … GTCTTGATTCGCTTGACGCTGCTG
| Oligonucleotide | fluorescence intensity [a.u.] |
| --- | --- |
| AAATTACTAAGTTGTCACCAAACTTACCCCGTATGA | 73.8 |
| CTTCTGTAAATTTGCATGGTGGGTGGACGCGCCCCG | 60.7 |
| CATACCCAACCTTGCCGGGTGGGTGAAGATATTTGT | 55.9 |
| ATTGCTCATTGAAAGCACGTGTTCCTTCAAATGAGA | 3400 |
| GTCTTGTCTCATTTTCACGTGGACTTCCCCACTTCA | 499 |

Study 2
Target: TAR DNA-binding protein 43, full length, His tag (TARDBP, Homo sapiens, UniProt Q13148, residues 1-414)
Method: RNA Bind-n-Seq
Molecule type: RNA
Sample: in vitro
Tested at: 20 nM
Notes: 6-mer, flanks averaged, single round
Added: 150 mM KCl
Reference: input library
Reading: higher = stronger binding
| Oligonucleotide | 6-mer enrichment (R) |
| --- | --- |
| GUGAGA | 1.54 |
| CUUACG | 0.628 |
| CUUUAU | 0.605 |
| GUUCCU | 0.599 |

Study 3
Target: Histone acetyltransferase KAT6A, both winged helices, GST fusion (KAT6A, Homo sapiens, UniProt Q92794, residues 1-181)
Method: protein binding microarray
Molecule type: double-stranded DNA, one strand shown
Sample: in vitro
Tested at: not given
Notes: 8-mer, flanks averaged, mean of 2 arrays, mostly near background
Reference: not given
Reading: higher = stronger binding
Target sequence (chain): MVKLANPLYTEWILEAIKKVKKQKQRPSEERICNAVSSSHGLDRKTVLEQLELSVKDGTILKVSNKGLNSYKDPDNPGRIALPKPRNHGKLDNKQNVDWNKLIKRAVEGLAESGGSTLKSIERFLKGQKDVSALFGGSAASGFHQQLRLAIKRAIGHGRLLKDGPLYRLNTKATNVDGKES
| Oligonucleotide | E-score |
| --- | --- |
| CAGTGTGA | -0.233 |
| GAGTTGAA | -0.118 |
| ACTTACTC | -0.0968 |
| ACGAGCCT | -0.0244 |
| ACTGCTTA | -0.253 |
| CCTTTCAC | -0.0351 |

Mixed results
| Molecule | target | assay | system | conditions | how to read | endpoint | result |
| --- | --- | --- | --- | --- | --- | --- | --- |
| PhoQ, residues 284 288 289 292 302 303 GNNTDL | PhoP, residues 12 14 15 18 19 IFFTR (Escherichia coli, UniProt P23836) | Sort-seq, item: YFP reporter | E. coli | PhoQ-PhoP variant library, added: 10 µM Mg2+ | reference: high Mg2+ state, higher = stronger signaling | fold induction | 2.92 |
